{"data": "Measured values from different studies", "7-alpha-hydroxycholest-4-en-3-one 12-alpha-hydroxylase": "7-alpha-hydroxycholest-4-en-3-one 12-alpha-hydroxylase (Homo sapiens, UniProt Q9UNU6)", "ALDH2": "Aldehyde dehydrogenase, mitochondrial (ALDH2, Homo sapiens, UniProt P05091)", "Histone acetyltransferase RTT109 with Vps75": "Histone acetyltransferase RTT109, with Vps75 (Saccharomyces cerevisiae, UniProt Q07794)", "note": "Compare with care: the assays were run in different laboratories. “And” joins repeats or separate records; there may be more than shown. ± gives the spread as reported.", "UniProt P05091, sequence (whole entry, looked up)": "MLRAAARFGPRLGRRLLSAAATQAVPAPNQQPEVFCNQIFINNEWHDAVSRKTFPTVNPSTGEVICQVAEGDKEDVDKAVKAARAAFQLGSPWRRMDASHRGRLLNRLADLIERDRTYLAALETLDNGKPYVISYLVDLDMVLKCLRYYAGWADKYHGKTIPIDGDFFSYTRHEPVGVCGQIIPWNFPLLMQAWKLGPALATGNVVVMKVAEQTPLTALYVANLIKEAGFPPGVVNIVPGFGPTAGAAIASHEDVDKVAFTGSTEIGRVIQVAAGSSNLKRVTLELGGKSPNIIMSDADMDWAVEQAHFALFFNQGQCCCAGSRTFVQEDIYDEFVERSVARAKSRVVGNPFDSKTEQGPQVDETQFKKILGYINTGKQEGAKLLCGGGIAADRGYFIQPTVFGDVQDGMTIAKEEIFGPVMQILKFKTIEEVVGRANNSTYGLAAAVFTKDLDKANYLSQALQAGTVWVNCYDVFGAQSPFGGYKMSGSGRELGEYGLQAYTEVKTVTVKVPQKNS", "UniProt Q07794, sequence (whole entry, looked up)": "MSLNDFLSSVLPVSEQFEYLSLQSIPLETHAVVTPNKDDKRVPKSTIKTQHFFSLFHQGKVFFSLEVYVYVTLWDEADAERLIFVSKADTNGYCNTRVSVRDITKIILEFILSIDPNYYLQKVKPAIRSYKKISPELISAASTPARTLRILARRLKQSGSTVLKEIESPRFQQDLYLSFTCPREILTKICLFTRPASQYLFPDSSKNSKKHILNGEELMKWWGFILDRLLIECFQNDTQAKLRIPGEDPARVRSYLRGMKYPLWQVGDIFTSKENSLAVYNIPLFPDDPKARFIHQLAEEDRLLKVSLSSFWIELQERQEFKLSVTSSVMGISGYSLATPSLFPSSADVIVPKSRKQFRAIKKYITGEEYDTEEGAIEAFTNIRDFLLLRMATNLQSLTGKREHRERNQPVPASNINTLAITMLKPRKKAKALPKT", "UniProt Q9UNU6, sequence (whole entry, looked up)": "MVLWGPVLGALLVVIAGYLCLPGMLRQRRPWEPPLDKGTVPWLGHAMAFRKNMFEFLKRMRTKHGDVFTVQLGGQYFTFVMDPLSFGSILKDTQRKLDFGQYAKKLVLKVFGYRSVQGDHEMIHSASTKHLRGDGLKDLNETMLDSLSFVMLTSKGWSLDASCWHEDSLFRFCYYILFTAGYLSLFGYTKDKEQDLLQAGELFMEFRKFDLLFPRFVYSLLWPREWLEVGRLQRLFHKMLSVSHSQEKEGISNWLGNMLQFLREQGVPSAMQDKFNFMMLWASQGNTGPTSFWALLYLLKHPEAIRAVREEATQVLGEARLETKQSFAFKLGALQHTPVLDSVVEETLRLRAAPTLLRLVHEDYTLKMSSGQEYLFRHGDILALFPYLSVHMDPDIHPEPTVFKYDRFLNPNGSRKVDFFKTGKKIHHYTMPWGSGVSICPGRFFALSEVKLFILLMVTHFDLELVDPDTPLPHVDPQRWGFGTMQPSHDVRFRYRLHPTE", "UniProt P01106, sequence (whole entry, looked up)": "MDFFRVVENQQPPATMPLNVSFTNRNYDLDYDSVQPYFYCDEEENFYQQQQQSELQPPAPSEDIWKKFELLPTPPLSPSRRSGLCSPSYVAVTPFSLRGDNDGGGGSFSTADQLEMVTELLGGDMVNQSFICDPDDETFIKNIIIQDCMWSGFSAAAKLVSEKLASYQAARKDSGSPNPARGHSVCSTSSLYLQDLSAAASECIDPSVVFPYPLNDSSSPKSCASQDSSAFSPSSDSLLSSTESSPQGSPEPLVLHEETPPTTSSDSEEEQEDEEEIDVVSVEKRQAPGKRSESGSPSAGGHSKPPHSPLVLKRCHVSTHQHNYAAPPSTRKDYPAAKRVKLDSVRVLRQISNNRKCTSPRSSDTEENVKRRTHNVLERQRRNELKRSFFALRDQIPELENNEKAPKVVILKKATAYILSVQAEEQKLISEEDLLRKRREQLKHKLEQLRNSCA", "UniProt Q16698, sequence (whole entry, looked up)": "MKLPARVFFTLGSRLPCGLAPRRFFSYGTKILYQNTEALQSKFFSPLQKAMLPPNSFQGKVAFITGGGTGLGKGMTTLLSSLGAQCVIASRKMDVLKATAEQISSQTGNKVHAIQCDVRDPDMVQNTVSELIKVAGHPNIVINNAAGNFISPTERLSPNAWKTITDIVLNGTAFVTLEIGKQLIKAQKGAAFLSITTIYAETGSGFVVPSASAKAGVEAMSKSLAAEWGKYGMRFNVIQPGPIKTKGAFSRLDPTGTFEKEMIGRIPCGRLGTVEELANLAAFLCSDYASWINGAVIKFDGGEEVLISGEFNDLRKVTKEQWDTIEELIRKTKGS", "UniProt P35226, sequence (whole entry, looked up)": "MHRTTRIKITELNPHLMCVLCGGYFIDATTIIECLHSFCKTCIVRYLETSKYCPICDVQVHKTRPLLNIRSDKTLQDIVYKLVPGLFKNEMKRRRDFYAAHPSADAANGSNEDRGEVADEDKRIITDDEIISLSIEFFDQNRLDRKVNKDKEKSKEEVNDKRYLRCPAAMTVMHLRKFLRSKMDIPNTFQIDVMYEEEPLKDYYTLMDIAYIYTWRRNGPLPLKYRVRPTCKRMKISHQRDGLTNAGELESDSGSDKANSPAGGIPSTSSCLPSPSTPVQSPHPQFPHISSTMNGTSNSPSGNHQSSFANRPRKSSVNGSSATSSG", "UniProt P61823, sequence (whole entry, looked up)": "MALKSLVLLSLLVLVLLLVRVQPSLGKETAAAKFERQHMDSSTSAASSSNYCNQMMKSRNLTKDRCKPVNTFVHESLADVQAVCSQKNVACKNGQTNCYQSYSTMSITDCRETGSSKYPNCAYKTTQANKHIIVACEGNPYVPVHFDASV", "UniProt Q99496, sequence (whole entry, looked up)": "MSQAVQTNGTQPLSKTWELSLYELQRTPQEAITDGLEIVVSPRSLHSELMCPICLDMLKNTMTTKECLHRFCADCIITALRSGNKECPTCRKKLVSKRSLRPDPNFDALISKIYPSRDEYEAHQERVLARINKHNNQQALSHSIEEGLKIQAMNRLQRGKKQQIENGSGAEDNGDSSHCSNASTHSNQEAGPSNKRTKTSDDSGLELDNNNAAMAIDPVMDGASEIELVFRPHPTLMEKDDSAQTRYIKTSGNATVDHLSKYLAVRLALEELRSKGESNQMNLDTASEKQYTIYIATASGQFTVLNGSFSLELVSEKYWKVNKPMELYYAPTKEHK", "UniProt P42336, sequence (whole entry, looked up)": "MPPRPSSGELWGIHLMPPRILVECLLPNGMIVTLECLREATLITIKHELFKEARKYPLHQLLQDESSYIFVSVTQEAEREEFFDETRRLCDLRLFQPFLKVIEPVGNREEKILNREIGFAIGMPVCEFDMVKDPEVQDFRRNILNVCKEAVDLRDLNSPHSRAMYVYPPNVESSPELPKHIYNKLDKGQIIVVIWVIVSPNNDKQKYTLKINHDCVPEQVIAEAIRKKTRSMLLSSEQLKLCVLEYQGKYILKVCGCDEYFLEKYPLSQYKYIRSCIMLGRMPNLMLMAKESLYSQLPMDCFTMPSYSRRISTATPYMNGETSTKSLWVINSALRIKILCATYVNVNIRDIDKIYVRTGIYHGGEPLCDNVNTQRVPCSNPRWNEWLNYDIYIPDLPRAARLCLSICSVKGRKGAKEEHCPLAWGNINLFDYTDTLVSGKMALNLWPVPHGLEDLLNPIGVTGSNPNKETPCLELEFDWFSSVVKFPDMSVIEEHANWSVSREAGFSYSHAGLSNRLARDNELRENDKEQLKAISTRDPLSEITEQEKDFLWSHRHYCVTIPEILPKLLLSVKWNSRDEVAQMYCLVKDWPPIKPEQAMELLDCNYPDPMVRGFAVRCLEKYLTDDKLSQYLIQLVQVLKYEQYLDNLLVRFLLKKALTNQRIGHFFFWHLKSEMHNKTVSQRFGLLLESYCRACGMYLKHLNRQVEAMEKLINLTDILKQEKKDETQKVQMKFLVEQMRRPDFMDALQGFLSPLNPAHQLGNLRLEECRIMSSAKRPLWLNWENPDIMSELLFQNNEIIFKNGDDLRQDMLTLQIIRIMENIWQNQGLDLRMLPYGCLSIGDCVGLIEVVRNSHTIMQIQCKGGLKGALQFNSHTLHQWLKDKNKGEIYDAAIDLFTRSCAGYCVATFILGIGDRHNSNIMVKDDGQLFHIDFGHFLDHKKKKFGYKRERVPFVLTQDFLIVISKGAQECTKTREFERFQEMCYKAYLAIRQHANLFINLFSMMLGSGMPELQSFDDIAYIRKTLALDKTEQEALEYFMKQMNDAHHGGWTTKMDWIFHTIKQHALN"}
{"Compound": "CC[C@H](C)[C@H](NC(=O)[C@H](Cc1ccc(OP(=O)(O)O)cc1)NC(=O)[C@H](CC(N)=O)NC(=O)[C@H](CC(C)C)NC(=O)[C@@H](N)CO)C(=O)N[C@@H](CC(=O)O)C(=O)N[C@@H](CC(C)C)C(=O)N[C@@H](CC(=O)O)C(=O)N[C@@H](CC(C)C)C(=O)N[C@H](C(=O)N[C@@H](CCCCN)C(=O)O)C(C)C", "target or system": "Tyrosine-protein phosphatase non-receptor type 11 (PTPN11, Homo sapiens, UniProt Q06124, D485R/S502P)", "assay": "enzyme activity, activator", "setting": "pH 7.0, 2% DMSO, with: DiFMUP 100 µM, phosphopeptide", "quantity": "EC50", "value": "0.25 ± 0.05 µM"}
{"Compound": "Nc1[nH]ncc1-c1ccccc1", "target or system": "7-alpha-hydroxycholest-4-en-3-one 12-alpha-hydroxylase", "assay": "binding", "setting": "20 min, pH 7.4", "quantity": "Kd", "value": "191 µM"}
{"Compound": "O=C(CCCCCCC(=O)Nc1ccccc1)NO", "target or system": "ALDH2", "assay": "inhibitor, competition pulldown", "test system": "SW620 and MV4-11 lysate", "setting": "1 h", "quantity": "Kd", "value": "0.541 µM"}
{"Compound": "O=C(/C=C/c1ccc(O)c(O)c1)OCCc1ccccc1", "target or system": "Toxoplasma gondii", "assay": "parasite growth", "test system": "HFF, bradyzoite, alkaline-induced", "quantity": "EC90", "value": "42.6 µM"}
{"Compound": "NCCS(=O)(=O)O", "target or system": "uncharacterized protein (Pelagibacter ubique, UniProt Q4FMG4)", "assay": "isothermal titration calorimetry", "test system": "Candidatus Pelagibacter ubique", "quantity": "Kd", "value": "0.0632 µM and 0.0495 µM and 0.0742 µM"}
{"Compound": "Nc1ccn([C@@H]2O[C@H](COP(=O)(O)OP(=O)(O)O)[C@@H](O)[C@H]2O)c(=O)n1", "target or system": "Ribonuclease pancreatic (RNASE1, Bos taurus, UniProt P61823)", "assay": "native MS, single-point", "quantity": "Kd", "value": "3.9 ± 0.2 µM"}
{"Compound": "O=C(CSC1CC(=O)N(c2ccc(Br)cc2)C1=O)Nc1ccc(Cl)cc1 (centres unmarked)", "target or system": "Histone acetyltransferase RTT109 with Vps75", "assay": "enzyme activity, inhibitor, HTS, CPM-based, dose response", "quantity": "IC50", "value": "> 125 µM"}
{"Compound": "CCN(CC)c1ccc2cc(C(=O)NCCNC(=O)c3ccc(-c4cc(-c5ccc(C#N)cc5)nc(-c5ccco5)c4)cc3)c(=O)oc2c1", "target or system": "Myc proto-oncogene protein, with MAX (MYC, Homo sapiens, UniProt P01106)", "assay": "binding, surface plasmon resonance", "quantity": "Kd", "value": "0.05 ± 0.013 µM"}
{"Compound": "O=C1CC(SC2=NCCS2)C(=O)N1c1ccc(Br)cc1 (centres unmarked)", "target or system": "Histone acetyltransferase RTT109 with Vps75", "assay": "enzyme activity, inhibitor, HTS, CPM-based, dose response", "quantity": "IC50", "value": "> 125 µM"}
{"Compound": "O=C(/C=C/c1ccc(O)c(O)c1)OC[C@@H]1O[C@]2(C(=O)O)C[C@H](OC(=O)/C=C/c3ccc(O)c(O)c3)[C@@H](O)[C@H]1O2", "target or system": "2,4-dienoyl-CoA reductase, mitochondrial (Homo sapiens, UniProt Q16698)", "assay": "binding, surface plasmon resonance", "quantity": "Kd", "value": "40.5 µM"}
{"Compound": "Oc1ccc(-c2nc(-c3ccc(OC4CCCC4)cc3)no2)cc1", "target or system": "PdaA (Clostridioides difficile)", "assay": "microscale thermophoresis", "quantity": "Kd", "value": "no binding"}
{"Compound": "Cc1[nH]c2ccccc2c1-c1csc(-c2c[nH]c3ccccc23)n1", "target or system": "Bromodomain-containing protein 4, dephosphorylated (BRD4, Homo sapiens, UniProt O60885)", "assay": "microscale thermophoresis", "setting": "Cy5-labelled protein", "quantity": "Kd", "value": "158 µM"}
{"Compound": "O=C(NO)c1cnc(NC2(c3ccccc3)CC2)nc1", "target or system": "ALDH2", "assay": "inhibitor, competition pulldown", "test system": "SW620 and MV4-11 lysate", "setting": "1 h", "quantity": "Kd", "value": "> 30.2 µM"}
{"Compound": "CCCN1CCN(c2ccc(-c3cncc(Cl)c3N3CCC4(CCNC4=O)CC3)cc2)CC1", "target or system": "MED12 human", "assay": "SILAC competition", "test system": "LS174T-L5 lysate", "quantity": "Kd", "value": "0.007 µM"}
{"Compound": "O=C(Cn1ccnc1)c1ccc(Cl)cc1Cl", "target or system": "7-alpha-hydroxycholest-4-en-3-one 12-alpha-hydroxylase", "assay": "binding", "setting": "20 min, pH 7.4", "quantity": "Kd", "value": "280 µM"}
{"Compound": "CC(C)c1c(-c2cc(F)cc3[nH]ccc23)[nH]c(C(=O)O)c1-c1c(Cl)ccc2[nH]ccc12", "target or system": "BMI1/RNF2 (Homo sapiens, UniProt P35226+Q99496)", "assay": "isothermal titration calorimetry", "quantity": "Kd", "value": "1.7 to 2.8 µM"}
{"Compound": "Nc1ccccc1NC(=O)c1ccc(CNC(=O)OCc2cccnc2)cc1", "target or system": "ALDH2", "assay": "inhibitor, competition pulldown", "test system": "SW620 and MV4-11 lysate", "setting": "1 h", "quantity": "Kd", "value": "> 30.2 µM"}
{"Compound": "COC(=O)C1=C(C)NC(C)=C(C(=O)OC(C)(C)CN(C)CCC(c2ccccc2)c2ccccc2)C1c1cccc([N+](=O)[O-])c1 (centres unmarked)", "target or system": "Toxoplasma gondii", "assay": "parasite growth", "test system": "HFF, bradyzoite, glutamine-induced", "quantity": "EC90", "value": "6.02 µM"}
{"Compound": "C#Cc1cccc(Nc2ncnc3cc(OC)c(OCCCCCCC(=O)NO)cc23)c1", "target or system": "ALDH2", "assay": "inhibitor, competition pulldown", "test system": "SW620 and MV4-11 lysate", "setting": "1 h", "quantity": "Kd", "value": "21.6 µM"}
{"Compound": "CCC(=O)N1CCC(C(=O)NCC(=O)N2CCN(c3nc(-c4cnc(N)nc4C(F)F)nc(N4CCOCC4)n3)CC2)CC1", "target or system": "Phosphatidylinositol 4,5-bisphosphate 3-kinase catalytic subunit alpha isoform (PIK3CA, Homo sapiens, UniProt P42336)", "quantity": "Kd", "value": "0.00013 µM"}
{"note": "Excerpt of the above:"}
{"Compound": "O=C(/C=C/c1ccc(O)c(O)c1)OC[C@@H]1O[C@]2(C(=O)O)C[C@H](OC(=O)/C=C/c3ccc(O)c(O)c3)[C@@H](O)[C@H]1O2", "target or system": "2,4-dienoyl-CoA reductase, mitochondrial (Homo sapiens, UniProt Q16698)", "assay": "binding, surface plasmon resonance", "quantity": "Kd", "value": "40.5 µM"}
{"Compound": "Oc1ccc(-c2nc(-c3ccc(OC4CCCC4)cc3)no2)cc1", "target or system": "PdaA (Clostridioides difficile)", "assay": "microscale thermophoresis", "quantity": "Kd", "value": "no binding"}
